# Measurements collected from several papers.
# Each line is one published result; not all experiments were run side by side. “And” joins repeats or separate records; there may be more than shown. ± marks the error that the study gave.
# DRD4: D(4) dopamine receptor (DRD4, Homo sapiens, UniProt P21917)
# Chain of UniProt P21917 (whole entry, looked up): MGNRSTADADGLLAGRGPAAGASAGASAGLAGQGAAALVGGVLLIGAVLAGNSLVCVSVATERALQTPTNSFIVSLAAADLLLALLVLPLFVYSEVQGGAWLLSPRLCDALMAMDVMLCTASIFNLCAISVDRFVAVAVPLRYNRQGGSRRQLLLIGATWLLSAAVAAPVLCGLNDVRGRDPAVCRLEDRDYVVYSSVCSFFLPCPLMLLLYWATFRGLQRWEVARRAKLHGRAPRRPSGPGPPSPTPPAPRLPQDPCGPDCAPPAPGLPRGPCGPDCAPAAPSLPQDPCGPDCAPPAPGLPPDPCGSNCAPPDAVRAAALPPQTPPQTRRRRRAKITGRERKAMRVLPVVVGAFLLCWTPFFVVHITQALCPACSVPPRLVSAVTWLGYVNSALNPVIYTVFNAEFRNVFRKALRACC
# Chain of UniProt Q92851 (whole entry, looked up): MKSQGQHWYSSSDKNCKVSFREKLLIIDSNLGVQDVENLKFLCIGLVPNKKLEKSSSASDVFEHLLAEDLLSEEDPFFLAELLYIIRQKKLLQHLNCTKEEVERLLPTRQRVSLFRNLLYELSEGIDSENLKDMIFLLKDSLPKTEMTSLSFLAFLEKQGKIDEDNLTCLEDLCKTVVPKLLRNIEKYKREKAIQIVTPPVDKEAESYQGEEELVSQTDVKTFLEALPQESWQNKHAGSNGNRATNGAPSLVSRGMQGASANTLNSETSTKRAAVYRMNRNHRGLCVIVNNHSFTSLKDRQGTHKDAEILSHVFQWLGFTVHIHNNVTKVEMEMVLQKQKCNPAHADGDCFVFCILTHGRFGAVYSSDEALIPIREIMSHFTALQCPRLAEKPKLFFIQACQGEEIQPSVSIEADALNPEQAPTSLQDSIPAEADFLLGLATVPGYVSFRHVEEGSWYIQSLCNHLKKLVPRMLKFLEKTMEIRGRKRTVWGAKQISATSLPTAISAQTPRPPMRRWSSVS
# Chain of UniProt Q14790 (whole entry, looked up): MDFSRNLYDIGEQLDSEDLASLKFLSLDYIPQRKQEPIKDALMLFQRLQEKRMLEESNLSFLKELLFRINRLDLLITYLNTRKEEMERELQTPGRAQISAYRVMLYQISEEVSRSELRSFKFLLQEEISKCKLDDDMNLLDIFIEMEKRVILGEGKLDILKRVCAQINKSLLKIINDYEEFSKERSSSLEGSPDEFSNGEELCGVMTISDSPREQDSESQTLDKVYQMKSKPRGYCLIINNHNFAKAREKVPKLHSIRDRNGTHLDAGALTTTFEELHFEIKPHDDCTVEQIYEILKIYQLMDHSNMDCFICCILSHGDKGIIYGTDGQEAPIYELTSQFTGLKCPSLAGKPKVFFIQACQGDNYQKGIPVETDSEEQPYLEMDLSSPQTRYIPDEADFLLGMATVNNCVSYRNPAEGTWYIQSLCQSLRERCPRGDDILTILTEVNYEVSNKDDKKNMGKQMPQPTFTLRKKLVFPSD
Structure (SMILES),target or system,test,test system,conditions,scale,endpoint,result
C=CC(=O)Nc1cccc(Cn2ncc3cnc(Nc4cnn(CCOC)c4)nc32)c1,DAPK3 human,"binding, KINOMEscan",,100 nM,lower = stronger binding,percent of control,100%
COC1CN([C@H]2CC[C@H]([C@@]3(C)Oc4c(Cl)cc(C(=O)NCc5c(SC)cc(C)[nH]c5=O)c(C)c4O3)CC2)C1,,"RNA-seq, item: PLS1 mouse homolog","mouse, HT-1376 xenograft, whole blood",dose not given,relative to: vehicle,log2 fold change,0.596
N#Cc1ccc(OCC2CN(Cc3ncn4ccccc34)CCC2(F)F)cc1F (stereo not drawn),DRD4,"ligand displacement, radioligand",,cell membranes,,Ki,21 nM and 21.3 nM
CC(C)C[C@H](NC(=O)[C@H](Cc1ccc(O)cc1)NC(=O)[C@@H](CCCNC(=N)N)NC(=O)[C@@H](CO)NC(=O)[C@H](Cc1ccccc1)NC(=O)[C@H](CC1CCCCC1)NC(=O)[C@H](CC(=O)O)NC(=O)CN1CCN(CC(=O)O)CCN(CC(=O)O)CCN(CC(=O)O)CC1)C(=O)N[C@@H](Cc1c[nH]c2ccccc12)C(=O)N[C@@H](CO)C(=O)O [copper-64 labelled],,,"human, lower large intestine","concentration not given, 24 h",,activity concentration,600 Bq/mL and 741 Bq/mL and 1600 Bq/mL and 1870 Bq/mL and 957 Bq/mL and 1550 Bq/mL
CC(C)c1ccc(N(C)c2ccc3c(c2)OCC[C@H]3CNc2cnccc2C(=O)O)cc1,NCI-H2087,"cell growth or viability, ATP luminescence",,7 days,,IC50,3.56 nM
CNS(=O)(=O)Nc1nccc(Cc2c(C)c3ccc(Oc4ncccc4F)cc3oc2=O)c1F,Daudi,cell viability,,7 days,,IC50,> 1000 nM
CCN(CC)CC(=O)Nc1cccc(-n2cc(-c3ccc4ccc(-c5cn(-c6cccc(NC(=O)CN(CC)CC)c6)nn5)cc4c3)nn2)c1,RCC4,"PCR angiogenesis array, item: SPHK1",,"5 x IC50, 4 h, normoxia",relative to: untreated,fold regulation,-1.1
Nc1ncc(-c2cc(-c3cnn(CC(F)(F)F)c3)ncc2F)nc1C(=O)NC1CNCC(F)C1 (stereo not drawn),CDK8,KINOMEscan,,1 µM,relative to: DMSO control,remaining binding,90%
C=C(NC(=O)c1csc(-c2nc3c(cc2O)-c2nc(cs2)C(=O)NC(C(C)O)C(=O)NC(=C(C)OC)c2nc(cs2)C(=O)NC2c4nc(cs4)C(=O)NC(COC(=O)c4c5c6c(cccc6n4O)COC(=O)C(OC4CC(C)(O)C(N(C)C)C(C)O4)C2OC5)c2nc-3cs2)n1)C(N)=O (stereo not drawn),Streptococcus pneumoniae,,"-4, immunocompromised mice, lung","2 mg/kg/day thrice daily, 24 h post-dose",,lung bacterial load,6.52 log10 CFU/lung
CC(=O)N[C@@H](Cc1ccc(C)cc1)C(=O)N[C@@H](CCCC(=O)O)C(=O)N[C@H](C(=O)N[C@@H](CC(=O)O)C(=O)COC(=O)c1c(C)cccc1C)C(C)(C)C,"Caspase-8 (CASP8, Homo sapiens, UniProt Q14790)","enzyme activity, inhibitor",,,,kinact/KI,167000 M⁻¹ s⁻¹
CC1(C)NC(=O)N(c2ccc(F)c(C(C)(F)F)c2)C1=O,Schistosoma mansoni,,"juvenile stage, infected mice","oral, 50 mg/kg",relative to: untreated infected,worm burden reduction,50%
COc1cc(O)ccc1CCC(c1ccc(O)cc1)c1cc2c(c(C)c1O)OC(c1ccc(O)cc1)CC2 (mixture of isomers),,item: LTB4 isomers,human whole blood,"30 µM, with: Escherichia coli",,amount,127 ± 44 pg/mL blood
Cn1ncc2cc(-c3cncc(Cl)c3N3CCC4(CCNC4=O)CC3)ccc21,LS174T,"gene expression, microarray, item: CACNA1H mRNA",,"concentration not given, 24 h",relative to: untreated cells,log2 fold change,2.26
CN(C)C(=O)c1ccnc(N2Cc3cn(Cc4ccc(F)cc4F)nc3C2)n1,,,"mouse, hippocampal slice, Schaffer collaterals","dose not given, interstimulus interval 1000",relative to: second over first response,paired-pulse ratio,1.24 and 1.06 and 1.07 and 0.989 and 1.14 and 0.872 and 1.21
OC(COCC1COc2ccccc2O1)CN1CCN(c2ccccc2)CC1 (stereo not drawn),,,"zebrafish larvae, 7 dpf","10 µM, minute 4",,larval motion,3.7 ± 1.2 pixels/frame
CN1CCCNC(=O)c2cccc(c2)C(=O)NCCCN(C)CCCNc2cccc3c2C(=O)c2cccc(c2C3=O)NCCC1,SAS,"RNA-Seq, item: GOSR2 mRNA",,"1 µM, 6 h",relative to: untreated cells,log2 fold change,-1.04
O=C(CCN1CCN(C/C=C/c2ccccc2)CC1)Nc1ccccc1F,,locomotor activity in dark,"zebrafish larvae, 7 dpf","10 µM, minute 1, dark phase",,larval motion,2.7 ± 1.3 pixels/frame
C=CC(=O)N1[C@@H](c2ccc3c(c2)OCO3)c2[nH]c3ccccc3c2C[C@H]1C(=O)N1CCN(C)CC1,human cyclin E1 N112C-3xFLAG:CDK2,"co-IP with TMT proteomics, item: CDKN1A",,"concentration not given, P38936",relative to: wild type DMSO,relative co-enrichment,144%
c1ccc(-c2n[nH]cc2-c2ccnc3ccccc23)nc1,MKK2 (Candida albicans),"kinase binding, MIB/MS competition",Candida albicans lysate,1 µM,relative to: DMSO,log2 fold change,0.01
C=C1CC[C@H](OCCCNC(=O)CCOCCOCCOCCOCCOCCOCCOCCOCCOCCOCCOCCOCCOCCOCCOCCOCCOCCOCCOCCOCCOCCOCCOCCOCCOCCOCCOCCOCCOCCOCCOCCOCCOCCOCCOCCOCCNC(=O)CCN2C(=O)CC(SC[C@H](NC(=O)[C@H](Cc3ccccc3)NC(=O)[C@H](CC(N)=O)NC(=O)[C@H](Cc3c[nH]cn3)NC(=O)[C@@H](NC(=O)[C@H](CC(=O)O)NC(=O)[C@H](CCC(N)=O)NC(=O)[C@H](CC(C)C)NC(=O)[C@H](CCCCN)NC(=O)[C@H](CCCCN)NC(=O)[C@H](CCCNC(=N)N)NC(=O)[C@H](CC(C)C)NC(=O)[C@H](Cc3c[nH]c4ccccc34)NC(=O)[C@H](CCC(=O)O)NC(=O)[C@@H](NC(=O)[C@H](CCCNC(=N)N)NC(=O)[C@H](CCC(=O)O)NC(=O)[C@H](CCSC)NC(=O)[C@H](CO)NC(=O)[C@H](CC(N)=O)NC(=O)[C@H](CC(C)C)NC(=O)[C@H](Cc3c[nH]cn3)NC(=O)[C@H](CCCCN)NC(=O)CNC(=O)[C@H](CC(C)C)NC(=O)[C@H](CC(N)=O)NC(=O)[C@H](Cc3c[nH]cn3)NC(=O)[C@H](CCSC)NC(=O)[C@H](CC(C)C)NC(=O)[C@H](CCC(N)=O)NC(=O)[C@@H](NC(=O)[C@H](CCC(=O)O)NC(=O)[C@H](CO)NC(=O)[C@@H](NC(=O)[C@@H](N)CO)C(C)C)[C@@H](C)CC)C(C)C)C(C)C)C(=O)O)C2=O)C/C1=C/C=C1\CCC[C@]2(C)[C@@H]([C@H](C)CCCC(C)(C)O)CC[C@@H]12 (stereo partly drawn),,,"male Sprague-Dawley rat, plasma","intravenous, 100 µg/kg, single dose",,AUC(0-t),4380 ng·h/mL
CC(=O)N[C@@H](CC(=O)O)C(=O)N[C@@H](CCC(=O)O)C(=O)N[C@@H](CC(C)C)C(=O)N[C@@H](CC(=O)O)C(=O)COC(=O)c1c(C)cccc1C,"Caspase-10 (CASP10, Homo sapiens, UniProt Q92851)",inhibitor,,recombinant enzyme,,kobs/[I],126000 M⁻¹ s⁻¹
CCN(C(=O)c1cc(F)ccc1Oc1nncnc1N1CCC2(C1)CN([C@H](CCCN(C)CCOC)C(C)C)C2)C(C)C,SF-268,,brain,168 h,,GI50,> 10000 nM
COCCNCCOc1cc(C)cc(C(C)C)c1,,,"zebrafish larvae, 7 dpf","10 µM, minute 4",,larval motion,15.5 ± 1.3 pixels/frame
CC(=O)[O-].O.O.[O-]c1ccc(Br)cc1C=NCCN1CCOCC1.[Zn+2],,hydroxyl radical scavenging,,120 µM,,inhibition,32.5%
Cc1cc(C(C)(C)C)ccc1OCCOCCN(C)C,,,"zebrafish larvae, 7 dpf","10 µM, minute 2",,larval motion,13.8 ± 1.3 pixels/frame
FC(F)(F)c1cccc(CNc2nc(NC3CCN(Cc4ccccc4)CC3)c3nc[nH]c3n2)c1,Cryptococcus neoformans,"RNA-seq, item: CNAG_02001 mRNA",,"48 µg/mL, 3 h",relative to: untreated wild type,log2 fold change,-1.39
O=C(CCN1CCN(C/C=C/c2ccccc2)CC1)Nc1ccc2c(c1)CCC2,,,"zebrafish larvae, 7 dpf","10 µM, minute 2",,larval motion,15.8 ± 2.1 pixels/frame
Cc1ncsc1-c1ccc(C(C)NC(=O)C2CC(O)CN2C(=O)C(NC(=O)CCCCCCCCCCN2CCCC(Nc3ncc(Cl)c(Nc4ccccc4S(=O)(=O)C(C)C)n3)C2)C(C)(C)C)cc1 (stereo not drawn),22Rv1,"RNA-seq, item: NSD1 mRNA",,concentration not given,relative to: DMSO,log2 fold change,-1.59
Fc1ccc(OCC2CN(Cc3cn4nc(Cl)ccc4n3)CCC2(F)F)cc1F (stereo not drawn),DRD4,"ligand displacement, radioligand",,cell membranes,,Ki,2.57 nM
Cc1cc(OCCOCCN(C)C)cc(C(C)C)c1,,locomotor activity in dark,"zebrafish larvae, 7 dpf","10 µM, minute 7, dark phase",,larval motion,0.8 ± 0.3 pixels/frame
